Published values pooled from the literature.
Every numbered part comes from another study and shows a few of its results, in no order.

Series 1
Target: Probable WRKY transcription factor 11, DNA-binding domain (WRKY11, Arabidopsis thaliana, UniProt Q9SV15, residues 228-325)
Chain of UniProt Q9SV15 (228-325, looked up): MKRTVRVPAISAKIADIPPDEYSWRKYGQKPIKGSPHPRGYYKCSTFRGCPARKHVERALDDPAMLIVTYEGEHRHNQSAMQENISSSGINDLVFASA
Method: DNA-protein interaction ELISA
Molecule type: double-stranded DNA, one strand shown
Medium: in vitro, bacterial lysate
Tested at: not given
Setting: whole dsDNA probe, crude lysate protein
Reference: highest signal in screen
Reading: higher = stronger binding
Endpoint: relative absorbance
Sequence = AAAAAATTAGGACCATCCCCACTAGGAAAA; result = 18.4 % of maximum
Sequence = AAAAAACATTCCTAGTTCATGTTACTAAAA; result = 16.4 % of maximum
Sequence = AAAAAAACGCTATATATTGGTGCTAGAAAA; result = 17.3 % of maximum
Sequence = AAAAAAGTTGCCGACGATTGCGGGTTAAAA; result = 17.9 % of maximum
Sequence = AAAAAATCCATGTTTAAGCTGGTCTCAAAA; result = 17 % of maximum
Sequence = AAAAAACGTGCGCGTGCATGTCATCGAAAA; result = 17.3 % of maximum
Sequence = AAAAAATGGCTCGGGTTCCAAGGTTGAAAA; result = 16.7 % of maximum
Sequence = AAAAAACCGGCACGATTTGGATATTCAAAA; result = 16.1 % of maximum
Sequence = AAAAAACCAGCCTCAGTCCTGAACAAAAAA; result = 16.1 % of maximum
Sequence = AAAAAACGTTAACACTGATTTAGGGTAAAA; result = 15.6 % of maximum
Sequence = AAAAAAATTGTATCATACTTCAGTTGAAAA; result = 16.1 % of maximum
Sequence = AAAAAATCTTACCCCTCCGCTTCTATAAAA; result = 15.6 % of maximum
Sequence = AAAAAATATTCCGCTTTTGGCTGAATAAAA; result = 17 % of maximum
Sequence = AAAAAACCCGCCGTCGTGATTATCACAAAA; result = 19.6 % of maximum
Sequence = AAAAAATTCGTTTTTCGTCTTTCATTAAAA; result = 17 % of maximum
Sequence = AAAAAACGGAAGATCGTGACTGCTAGAAAA; result = 19.9 % of maximum
Sequence = AAAAAACGGTCGCGATCGTTAATGATAAAA; result = 18.2 % of maximum

Series 2
Target: RING finger protein unkempt homolog, zinc fingers 1-6, GST-SBP tag (UNK, Homo sapiens, UniProt Q9C0B0, residues 30-357)
Method: RNA Bind-n-Seq
Molecule type: RNA
Medium: in vitro
Tested at: not given
Setting: RNA with constant flanks, human-mouse chimeric sites, ends assumed
Reference: input RNA pool
Reading: higher = stronger binding
Endpoint: bound/input enrichment
All sequences stand within: GGGAGUUCUACAGUCCGACGAUC … CAACAGAGGAUUGAGCAUCA
Target sequence (chain): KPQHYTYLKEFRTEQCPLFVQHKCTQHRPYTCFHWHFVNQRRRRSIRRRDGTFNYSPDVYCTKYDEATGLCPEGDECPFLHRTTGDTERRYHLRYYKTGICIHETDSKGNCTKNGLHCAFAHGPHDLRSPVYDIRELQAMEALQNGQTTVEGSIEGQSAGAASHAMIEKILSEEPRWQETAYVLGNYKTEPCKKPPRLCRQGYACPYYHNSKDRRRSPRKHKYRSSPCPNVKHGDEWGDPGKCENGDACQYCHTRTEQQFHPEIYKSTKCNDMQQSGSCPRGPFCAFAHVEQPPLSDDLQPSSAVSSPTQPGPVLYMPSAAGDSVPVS
Sequence = AAAGUGAUGACUAUGUUUGUACAGCGACAGGUAUUUUCGGAGAGCAAAGAUGAGAUUGCGUUAGUCCUCUAUGGCACAGAUGGCACUGACAAUCCCCUUGCUGGCAAGGACCAGUAUCAG; result = 0.206 ratio
Sequence = UACUCAACUUUCUUGCCACGUUUUGAAUUCCAAGACAUUAUUCCUCCAGAUGACUUCCUAACUAGUGAUGAAGAGCAAGAUUUGGUUUUAUUUGGAACUAUGAGAGGACAAGUUGUUGGA; result = 0.244 ratio
Sequence = GUGACUGGUGUUAAGAUUUCCCCUCAGCAAAGAAGUGCAGUAGUCACCAUAAUUCCAUCUAUAGUGAGUGCCAGUCAGAUAAAAGAGCUGGUCCCAGACCUCAGUUUAGACAUGGGAACU; result = 0.63 ratio
Sequence = CAUGUAUCUGCAGUACUUGAUGUGGACUACUCUCCCACUGGGAAGGAAUUUGUGUCUGCUAGUUUCGAUAAGUCUAUUAGAAUCUUUCCUGUGGACAAGAGCCGAAGCAGGGAAGUGUAU; result = 1.29 ratio
Sequence = UCAGGAACCCAGACAAACAUGAAUGUAAAUGAAGUCAUUAGCAACAGAGCAAUUGAAAUGUUAGGAGGUGAACUUGGCAGCAAGAAGCCUGUGCAUCCCAACGAUCAUGUUAACAAAAGC; result = 0.243 ratio
Sequence = GUAGCUGGGACUACAGAAAUGCUGGUAAUUUCAGUCAGUGAGUCGUGACUUCUGAUGUCCCAGCAAAUGUUGGCAUUGUUGACUGCUCUGUGAAGACUUCUGAGGACCCACGUCUAAGGU; result = 0.105 ratio
Sequence = GAUGAUAAUCACACAAAUGUGGCACUUUUACAUGACCAGCCUUGGGAUUCUUUUCCUGAUUAAUAUUCUCCCUGGAACCACUGGUCAAGGGGAAUCAAGACGACAAGAACCCGGGGACUU; result = 0.16 ratio
Sequence = AAGCAACGCAAACUUGAAACAAUUCGUUAUCUUGCAGCCUCAGUGUUCACUUGCUUGGCGAUAGCAUUGGGGUUUUAUAGGUUCUGGGGAAGUAGUAGACGAUGAUGCUGCCGCUGCUGC; result = 0.747 ratio
Sequence = UCUUUAAAAAAAAAAUUACCUUUUCUGACAGUGCUUUCCCUCCCAUAGAUCCACGUUCAAGCUCAAAGAGCAAAGGCUCCGCAAACAGCUCAAACAUCUGAUGAAGAUUUUUGAGACAGA; result = 1.32 ratio
Sequence = ACUCUUGACUCUUUCCAUUCUCGUCCCUUUCCUCUUGAUAUUCAAGGCCAUGAAUCCCAAAAUAACAGUCUUAGUGGCUAGCACCCAAACAGAGGUGGAAUAAAUCCACCCCAGUGUCUC; result = 0.471 ratio
Sequence = GCAGGAUCUUCUAAAUACCAGUGGGGCAUUAUGAAAUCCCUUGGGCUCUCUGAUGACGACAUAGUGAAGUUUUCUGAAGCAGAGCACUGGCUUGAUUAUUUCCCACCACUGGCCGUUCAG; result = 0.0857 ratio

Series 3
Target: RNA binding protein fox-1 homolog 2, RRM domain, GST-SBP tag (RBFOX2, Homo sapiens, UniProt O43251-10, residues 100-194)
Method: RNA Bind-n-Seq
Molecule type: RNA
Medium: in vitro
Tested at: 365 nM
Setting: natural RNA segment, single round, ends assumed
Reference: no-protein control
Reading: higher = stronger binding
Endpoint: RBNS enrichment (R)
All sequences stand within: GGGAGUUCUACAGUCCGACGAUC … UGGAAUUCUCGGGUGCCAA
Construct (chain): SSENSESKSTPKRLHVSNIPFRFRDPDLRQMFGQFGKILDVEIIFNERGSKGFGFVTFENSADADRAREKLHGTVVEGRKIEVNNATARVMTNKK
Sequence = UCUCCCUCUCAACCAUCCCACUAAGUUAUAGCCAAGAAGGGAAGGAGACACGGGGAUUUGGGGUUCUCUGCUUGAAUGUCUUCUCCUUUACCACCUCACCUUGUUGGUAC; result = 1.12
Sequence = GCUGAAACCAAGAGCACAAUUCCCAUUAAGAGAAGGAUCUCUGUGCUGUAAACUAAACAAAUUGUGCAUUUUUUCUGGGGCCAUUGUUUUUGGUUUAUUUUGUUAUUUUG; result = 0.856
Sequence = CAUCGGAUGUCAGCCCCCUGCGGCCCCAGCUGGAGAUGGAUAUGAGACUAGUCAAGAUGUGAAUGCUAAUUGGAGAGAAAUAUAAUUUUAGGAAGAUGCACAUUGAUGUG; result = 0.496
Sequence = GUUCUUGUUAGAACACCAAGCACACACUUGAGAUUAUUUAUUGAUCGAGGCAAAGUAAUUAGUCAUGUUUGGGUUUGCUUUUUUUGUUGAUAAGAUUAACAAUGUGUGCU; result = 1.29
Sequence = AUUGUCCUGGAACCUCCAGGAUCCUUGACUGAGGGCGUUGGGAUGGCUUGUAGGAUUUUUAAGAGAGUGUGUCUACAGACAAGCAUUUUCUCUGUAGAGCAGCCACACGU; result = 0.309
Sequence = AUGGUUUUCUUUACAUGAACAAAUGAACAAAAGAGAUCCUAGAUCCAUAACGUAGCUAAGGCAUCUAAGAGUUUGCUGUUGAUAAUCUUGCUGACCAAAAACUACUGGAG; result = 0.452
Sequence = ACAUCCCCAGACAAGGAUGGCACAAGAGGCCAAAUUUGAAGGCCUUGGGAGAGAAGCCAUUUCCCCUACCUCUAACGAGCGUAGUUUUCUGUCUGAAUGGCCCCCCUUUU; result = 0.433
Sequence = UGCAACUUGCGUAUCAUCUUCUCCACCUCCAAGUGUCUGAAUGCUUACACAAAUAAAUUUUAUAACUACUCAUUUUGCAUACUAUUCUUGAAAUGUGGCUCCACGGAGCA; result = 1.02
Sequence = ACACCAACUAGAUUAUUAUCAGGUACAGAAUCCUGUCCUGAACCUGGGCAAGGCUGGAGGUACUGUAGAGAAUCCAGCUUGGGCCACUGCUUCCAUGUAGAGAAGUGGGA; result = 0.995
Sequence = AUAAAUAGAGGGAAACUUGGAUGCUAAAAUUACAUGAAUAGGAAUCUUCCUGGCACUUAGUGUUUCUAUGUUAUUGAAAAAUGAUGUUCCAGAAAGAUUACUUUUUUCCU; result = 0.428
Sequence = GAGAGGGGUGUUUCUGCCCGGGUUGCCCUCCUUCAGUGAGUCAGAAGAACCUUCUGGGCCUAGAGGCAGACGCUGCAUUGCACUAUUCCAGUGUCUUCCACGGAGCCUCU; result = 0.597
Sequence = AGAUAUUUUUCUGAGAGAUAACUUUAGUUUGCAAUUUGUAAGUGAAACUGAAUCGUGGGUGCAUUUCAGAAGAGAACGUUCCAUAUAAUGCAGCUAACCAAGGACUCCUG; result = 0.763

Series 4
Target: Ras GTPase-activating protein-binding protein 1, RRM domain (G3BP1, Homo sapiens, UniProt Q13283)
Chain of UniProt Q13283 (whole entry, looked up): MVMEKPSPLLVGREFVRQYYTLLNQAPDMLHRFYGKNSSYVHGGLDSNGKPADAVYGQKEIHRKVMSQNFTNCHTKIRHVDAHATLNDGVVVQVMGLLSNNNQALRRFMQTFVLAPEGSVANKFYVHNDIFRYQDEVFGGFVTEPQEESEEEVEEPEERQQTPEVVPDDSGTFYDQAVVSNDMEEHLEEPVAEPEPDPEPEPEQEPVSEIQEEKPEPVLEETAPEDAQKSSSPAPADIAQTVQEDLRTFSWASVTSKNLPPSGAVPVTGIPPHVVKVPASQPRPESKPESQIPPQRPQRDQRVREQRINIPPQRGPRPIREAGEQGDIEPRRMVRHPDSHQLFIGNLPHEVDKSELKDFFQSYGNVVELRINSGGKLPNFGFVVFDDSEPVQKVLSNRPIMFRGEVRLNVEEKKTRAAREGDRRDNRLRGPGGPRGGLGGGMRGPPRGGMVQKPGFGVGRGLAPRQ
Method: RNA Bind-n-Seq
Molecule type: RNA
Medium: in vitro
Tested at: 1 µM
Setting: whole 134-nt RNA, ends assumed
Together with: 150 mM KCl
Reference: input library
Reading: higher = stronger binding
Endpoint: log2 enrichment
All sequences stand within: GGGAGUUCUACAGUCCGACGAUC … UGGAAUUCUCGGGUGUCAAGG
Sequence = ACCAUGCAGGUGGGCAUCUUUGGGAAGUGGGGCAAGGGGGGGAUAGGGAGGGGGCUAACACUUUGGGAACAGGUGGUCCCAGGUCGUUUC; result = 0.45
Sequence = UAACUUUAGAGGACGAUCUGAUGGAUAUGGCAGUGGACGUGGAUUUGGGGAUGGCUAUAAUGGGUAUGGAGGAGGACCUGGAGGUGGCAA; result = -0.399
Sequence = UCCUGUGCUACACAUCGUAUGUACCGAAUCGGGUUUUUGGGUUUUUGGGAAAAAAAGGGAAAGUAUUAUGUUACGCCGUUCGGAUCUGCA; result = -0.0365
Sequence = CAAGUCCUGUGCUACACAUCGUAUGUACCGAAUCGGGAAAGGGUUUGGGAAAGGGAAAGUAUUAUGUUACGCCGUUCGGAUCUGCACUUC; result = 0.711
Sequence = UGGGAGGUGGAUUUUGUUUGUUUUUUUAGCUCAUUUCCAGGGGUGGGAAUUUUUUUUUAAUAUGUGUCAUGAAUAAAGUUGUUUUUGAAA; result = 1.01
Sequence = CCUGUGCUACACAUCGUAUGUACCGAAUCGGGUUUUUUUGGGAAAAAGGGUUUUUUUGGGAAAGUAUUAUGUUACGCCGUUCGGAUCUGC; result = -0.446
Sequence = GUCCUGUGCUACACAUCGUAUGUACCGAAUCGGGUUUUUGGGGUUUUUGGGUUUUUGGAAAGUAUUAUGUUACGCCGUUCGGAUCUGCAC; result = -0.17
Sequence = UGGGAGGUGGAUUUUGUUUAUUUUUUUAGCUCAUUUCCAGGGGUGGGAAUUUUUUUUUAAUAUGUGUCAUGAAUAAAGUUUUUUUUGAAA; result = 2.02
Sequence = CCUGUGCUACACAUCGUAUGUACCGAAUCGGUUUUUUGGGGUUUUUUGGGUUUUUUGGGGAAAGUAUUAUGUUACGCCGUUCGGAUCUGC; result = -0.357
Sequence = UCCUGUGCUACACAUCGUAUGUACCGAAUCGGGGUUUUUGGGGAAAAAAAGGGGAGGGGAAAGUAUUAUGUUACGCCGUUCGGAUCUGCA; result = 0.652
Sequence = CCUCAAGUCCUGUGCUACACAUCGUAUGUACCGAAUCGGCCGGGCCGGCCGGGAAAGUAUUAUGUUACGCCGUUCGGAUCUGCACUUCCA; result = -0.367
Sequence = UAUUGGACACAGUGCCCCGCUGAACAGCAGCUGUUCCCAGCGCCAGAGGACCCCACAGCCACAGUAGGAGCUUUGCGACCCCUACGCAAC; result = -0.387
Sequence = CACAGACAACACGCACCCACACAGACACUGAGGGAAGGGGUUGGGAUGGGGACAGGGUGCACAGCAGGGCGGGGUAGGACCCCAGCCCCU; result = 0.0701
Sequence = UCCUGUGCUACACAUCGUAUGUACCGAAUCGGGCCCCCGGGGCCCCCGGGGCCCCCGGGAAAGUAUUAUGUUACGCCGUUCGGAUCUGCA; result = -0.632

Some of these lines once more (series 1):
Sequence = AAAAAATCTTACCCCTCCGCTTCTATAAAA; result = 15.6 % of maximum
Sequence = AAAAAACGTTAACACTGATTTAGGGTAAAA; result = 15.6 % of maximum
Sequence = AAAAAACGGAAGATCGTGACTGCTAGAAAA; result = 19.9 % of maximum
Sequence = AAAAAATCCATGTTTAAGCTGGTCTCAAAA; result = 17 % of maximum
Sequence = AAAAAACCCGCCGTCGTGATTATCACAAAA; result = 19.6 % of maximum
Sequence = AAAAAATATTCCGCTTTTGGCTGAATAAAA; result = 17 % of maximum
Sequence = AAAAAATTAGGACCATCCCCACTAGGAAAA; result = 18.4 % of maximum
Sequence = AAAAAAGTTGCCGACGATTGCGGGTTAAAA; result = 17.9 % of maximum
